Results from different studies.
Values joined by “and” are separate records of one study, mostly repeats; a detail may differ. Numbers after ± are the reported error.

`COc1ccc(NC(=O)c2ccc3[nH]c(-c4ccc(N(C)C)cc4)nc3c2)cn1` gave a PI-positive cells of 171 count and 167 count and 223 count (HCT116; IncuCyte; concentration not given, 32 (unit not given)).
For `O=C1NC2(CC2)COc2ncc(F)cc2[C@H]2COCCN2c2ccn3ncc1c3n2`, “organ-to-body weight ratio” read 0.354 ± 0.017% (Sprague-Dawley rat, male, heart; oral, 20 mg/kg/day, 4 weeks dosing, end of recovery).
With `CN(C)C(=O)[C@@H](NC(=O)c1cc(-c2ccnn2C)ccc1-c1ccc(C(F)(F)F)cc1)c1cccc(C(F)(F)F)c1` the IC50 was > 20 µM (NKL effector, Ba/F3-ULBP1 target; NKG2D-mediated cell killing, inhibitor).
For `CCOC(=O)C1(Cc2ccccc2)Oc2cc(F)ccc2N(Cc2ccccc2)C1=O` (stereo not drawn), the inhibition was 1.77% (L02; cell growth or viability, CCK-8; 100 µM, 72 h).
For `CC(C)(C)C(=O)OCOP(=O)(OCOC(=O)C(C)(C)C)C1CCCN(O)C1=O` (stereo not drawn), the GI50 was 0.393 µM (IGROV-1).
For `N#Cc1cccc(-c2ccc(=O)n(Cc3cccc(-c4ncc(OCC5CCN(CC(=O)N6CCN(c7ccc8c(c7)C(=O)N(C7CCC(=O)NC7=O)C8=O)CC6)CC5)cn4)c3)n2)c1` (stereo not drawn), “protein level fold change” read -3.37 (EBC-1; label-free proteomics, measured: IMA1; concentration not given; reference: control).
`NC(=S)N/N=C/c1ccc(OCc2ccccc2)cc1` — result for “catalase activity (OD450)”: 0.039 a.u. (IMR-32; 100 µg/mL, 24 h; higher = more activity).
`CCCCCC(=O)[O][Pt]([Cl])([Cl])[O]C(=O)CCCCC.N.N` gave an IC50 reduction of 49.5% (A549/DDP cisplatin-resistant; together with: survivin siRNA transfection; reference: non-transfected cells).
`N[C@H](C(=O)N1CCCC1)C1CCN(c2nccc3c(-c4ncc(Cl)cc4Cl)cccc23)CC1` has an inhibition of 94.7% and 92.7% and 92.8% and 93.8% (human neutrophils; protein citrullination, inhibitor, flow cytometry, measured: citrullinated histone H3; 10 µM, together with: ionomycin).
For `CC(C)C12OC1C1OC13C1(C)CCC4=C(COC4=O)C1CC1OC13C2OC(=O)CCCOC1OC(CO)C(O)C(O)C1O` (stereo not drawn), the IC50 was 10.6 µM (human Fibroblast; cell growth or viability, XTT; 47 h).
`CC(=O)NCSC[C@H](NC(=O)[C@@H]1CCCN1C(=O)[C@H](C)NC(=O)[C@@H](NC(=O)CNC(=O)[C@@H](NC(=O)[C@H](Cc1c[nH]c2ccccc12)NC(=O)[C@H](C)NC(=O)CNC(=O)[C@H](CO)NC(=O)[C@H](C)NC(=O)[C@@H]1CCCN1C(=O)[C@H](Cc1c[nH]c2ccccc12)NC(=O)[C@H](C)NC(=O)[C@H](C)NC(=O)[C@@H](N)Cc1ccc(O)cc1)[C@@H](C)O)[C@@H](C)O)C(=O)N[C@@H](CO)C(=O)N[C@@H](C)C(=O)NCC(=O)N[C@H](C(=O)NCCOCCOCCOCCOCCOCCOCCOCCOCCOCCOCCOCCOCCC(=O)N[C@@H](CS)C(N)=O)[C@@H](C)O` gave a selectivity ratio of 3.1 ± 0.75 (HCC1359 lung squamous carcinoma; cell binding, phage binding, measured: output/input phage; 10 min, 37 °C; reference: control phage).
`COc1ccccc1-c1ccncc1C(=O)Nc1nnc(OCc2ccc(Cl)cc2)s1` has a colony survival of 93.2% (DLD-1 BRCA2-/-; 0.06 µM, mean of 3 replicates; reference: untreated).

For quick reference, copied from above:
With `CN(C)C(=O)[C@@H](NC(=O)c1cc(-c2ccnn2C)ccc1-c1ccc(C(F)(F)F)cc1)c1cccc(C(F)(F)F)c1` the IC50 was > 20 µM (NKL effector, Ba/F3-ULBP1 target; NKG2D-mediated cell killing, inhibitor).
